{"data": "Assay results from different studies", "note": "Compare with care: the assays were run in different laboratories. Values joined by “and” are separate records of one study, mostly repeats; a detail may differ. ± marks the error that the study gave.", "sequence of UniProt P02751 (whole entry, looked up)": "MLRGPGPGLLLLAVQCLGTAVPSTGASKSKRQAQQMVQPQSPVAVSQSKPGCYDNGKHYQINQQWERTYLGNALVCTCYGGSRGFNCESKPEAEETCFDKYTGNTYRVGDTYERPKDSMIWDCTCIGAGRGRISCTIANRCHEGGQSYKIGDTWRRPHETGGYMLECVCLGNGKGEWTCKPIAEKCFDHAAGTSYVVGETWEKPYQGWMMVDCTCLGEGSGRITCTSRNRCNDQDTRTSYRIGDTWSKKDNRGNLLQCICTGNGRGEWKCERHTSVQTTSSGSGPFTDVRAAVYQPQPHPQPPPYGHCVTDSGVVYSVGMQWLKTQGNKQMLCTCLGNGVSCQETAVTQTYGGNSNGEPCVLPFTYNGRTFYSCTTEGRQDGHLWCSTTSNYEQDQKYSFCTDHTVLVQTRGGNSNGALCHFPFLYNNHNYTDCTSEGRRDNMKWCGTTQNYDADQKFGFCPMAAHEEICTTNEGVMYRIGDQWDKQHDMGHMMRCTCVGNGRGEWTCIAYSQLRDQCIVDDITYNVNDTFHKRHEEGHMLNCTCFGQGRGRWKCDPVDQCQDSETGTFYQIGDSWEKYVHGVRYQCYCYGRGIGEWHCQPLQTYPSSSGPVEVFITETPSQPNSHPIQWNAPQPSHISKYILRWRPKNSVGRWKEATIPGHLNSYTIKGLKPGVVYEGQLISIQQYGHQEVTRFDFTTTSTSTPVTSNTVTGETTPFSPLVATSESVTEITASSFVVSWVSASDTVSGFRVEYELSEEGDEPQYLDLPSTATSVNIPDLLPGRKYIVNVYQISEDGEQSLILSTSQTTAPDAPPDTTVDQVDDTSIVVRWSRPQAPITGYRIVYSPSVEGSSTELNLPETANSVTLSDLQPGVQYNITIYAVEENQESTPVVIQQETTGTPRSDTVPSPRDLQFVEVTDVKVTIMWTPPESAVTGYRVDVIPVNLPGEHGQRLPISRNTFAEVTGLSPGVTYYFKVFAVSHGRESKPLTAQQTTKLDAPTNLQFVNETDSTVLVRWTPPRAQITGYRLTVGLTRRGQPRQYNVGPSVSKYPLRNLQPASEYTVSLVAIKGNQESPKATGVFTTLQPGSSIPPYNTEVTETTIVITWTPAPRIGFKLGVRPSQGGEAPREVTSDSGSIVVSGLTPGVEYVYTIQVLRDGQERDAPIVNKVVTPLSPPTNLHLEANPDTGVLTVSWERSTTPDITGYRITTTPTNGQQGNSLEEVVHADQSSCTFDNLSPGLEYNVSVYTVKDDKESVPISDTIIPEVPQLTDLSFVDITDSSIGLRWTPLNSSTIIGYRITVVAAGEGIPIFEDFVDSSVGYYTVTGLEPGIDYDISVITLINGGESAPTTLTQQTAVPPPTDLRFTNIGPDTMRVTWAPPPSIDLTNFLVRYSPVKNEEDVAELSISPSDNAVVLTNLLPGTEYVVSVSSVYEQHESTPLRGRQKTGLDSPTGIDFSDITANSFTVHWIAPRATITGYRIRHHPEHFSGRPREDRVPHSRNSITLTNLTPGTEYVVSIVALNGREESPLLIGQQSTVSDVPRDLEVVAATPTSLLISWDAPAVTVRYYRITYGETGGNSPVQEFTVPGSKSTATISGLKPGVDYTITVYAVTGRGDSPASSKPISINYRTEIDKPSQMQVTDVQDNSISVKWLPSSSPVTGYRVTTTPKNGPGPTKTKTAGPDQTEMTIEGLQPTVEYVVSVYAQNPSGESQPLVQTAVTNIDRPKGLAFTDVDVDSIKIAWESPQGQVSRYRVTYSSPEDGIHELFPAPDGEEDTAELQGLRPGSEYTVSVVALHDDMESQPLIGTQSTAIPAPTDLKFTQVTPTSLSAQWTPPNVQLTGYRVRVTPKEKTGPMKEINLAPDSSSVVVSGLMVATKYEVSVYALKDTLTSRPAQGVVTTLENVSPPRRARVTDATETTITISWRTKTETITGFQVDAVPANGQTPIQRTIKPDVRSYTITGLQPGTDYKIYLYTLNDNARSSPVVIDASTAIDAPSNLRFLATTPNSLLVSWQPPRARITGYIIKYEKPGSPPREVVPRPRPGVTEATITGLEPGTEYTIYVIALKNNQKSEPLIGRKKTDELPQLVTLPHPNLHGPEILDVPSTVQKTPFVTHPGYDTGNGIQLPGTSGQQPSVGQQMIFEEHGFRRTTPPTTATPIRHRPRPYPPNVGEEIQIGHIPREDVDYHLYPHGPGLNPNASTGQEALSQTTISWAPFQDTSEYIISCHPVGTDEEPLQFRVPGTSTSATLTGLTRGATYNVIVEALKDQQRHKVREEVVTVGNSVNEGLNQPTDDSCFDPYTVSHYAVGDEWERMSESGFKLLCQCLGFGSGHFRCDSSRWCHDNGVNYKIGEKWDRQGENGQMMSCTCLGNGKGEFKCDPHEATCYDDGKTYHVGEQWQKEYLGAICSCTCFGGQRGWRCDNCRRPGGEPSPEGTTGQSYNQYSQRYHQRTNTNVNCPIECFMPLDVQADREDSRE"}
{"Substance": "Cc1ccc(/C(C#N)=C2\\C=CC(=NO)C(Cl)=C2)cc1", "tested on": "MERS-CoV spike VSV pseudovirus", "assay": "pseudovirus entry", "conditions": "10 µM", "measurement": "inhibition", "result": "28%"}
{"Substance": "AaH II scorpion toxin", "tested on": "rat Nav1.2a VSD IV paddle peptide", "assay": "surface plasmon resonance", "conditions": "100 nM, pH 7.2, 25 °C, 0.1% BSA", "measurement": "SPR binding response", "result": "40 to 60 RU"}
{"Substance": "CCOc1nc(N)ncc1-c1cn([C@@H]2O[C@](F)(CO)[C@@H](O)[C@H]2O)cn1", "tested on": "Zaire ebolavirus", "assay": "viral replication, reporter virus", "system": "Huh-7", "conditions": "72 h", "measurement": "IC50", "result": "> 100 µM"}
{"Substance": "H-RNPHLMGIGGGLAGESGETTPK-OH (fnz 370-391 (Streptococcus zooepidemicus))", "tested on": "FN1 516-608, N-glycans trimmed to GlcNAc (Homo sapiens, UniProt P02751)", "assay": "competition with ligand, fluorescence polarisation", "system": "peptide", "conditions": "pH 7.4, 25 °C, NaCl 150 mM, competition", "measurement": "Kd", "result": "1.9 ± 0.1 µM"}
{"Substance": "CC(C)C(=O)OC[C@@]1(F)O[C@@H](n2cnc(-c3cnc(N)nc3)c2)[C@H](OC(=O)C(C)C)[C@@H]1OC(=O)C(C)C", "tested on": "Zaire ebolavirus", "assay": "viral replication, reporter virus", "system": "Huh-7", "conditions": "72 h", "measurement": "IC50", "result": "56.7 µM"}
{"Substance": "COc1cc2ncnc(Nc3cccc(Cl)c3)c2cc1OC", "tested on": "Monkeypox virus", "assay": "viral infection", "system": "replication-deficient", "conditions": "0.412 µM", "scale": "baseline: untreated", "measurement": "infection", "result": "109% and 90.3% and 98.1%"}
{"Substance": "O=c1ccn([C@@H]2O[C@](F)(CO)[C@@H](O)[C@H]2O)c(=O)[nH]1", "tested on": "Mammarenavirus lassaense", "assay": "viral replication", "system": "HeLa, clade I", "measurement": "EC50", "result": "2.03 µM"}
{"Substance": "AaH I scorpion toxin", "tested on": "rat Nav1.2a VSD IV paddle peptide", "assay": "surface plasmon resonance", "conditions": "100 nM, pH 7.2, 25 °C, 0.1% BSA", "measurement": "SPR binding response", "result": "40 to 60 RU"}
{"note": "Some of these lines once more:"}
{"Substance": "CC(C)C(=O)OC[C@@]1(F)O[C@@H](n2cnc(-c3cnc(N)nc3)c2)[C@H](OC(=O)C(C)C)[C@@H]1OC(=O)C(C)C", "tested on": "Zaire ebolavirus", "assay": "viral replication, reporter virus", "system": "Huh-7", "conditions": "72 h", "measurement": "IC50", "result": "56.7 µM"}
